Results of several laboratories.
Each line is one published result; not all experiments were run side by side. Values joined by “and” are separate records of one study, mostly repeats; a detail may differ. Numbers after ± are the reported error.

CC(C)[C@H]1NC(=O)[C@@H](C)NC(=O)[C@@H](C(C)C)NC(=O)[C@@H](Cc2ccccc2)NC(=O)[C@@H](C(C)C)NC(=O)[C@@H]([C@H](C)O)NC(=O)[C@@H](Cc2ccc(O)cc2)NC(=O)[C@@H](CCCNC(=N)N)NC(=O)[C@@H]2CCCC[C@H]2NC(=O)[C@@H](CO)NC(=O)[C@H](Cc2ccc(O)cc2)NC(=O)CSC[C@@H](C(=O)NCCOCCOCCOCCOCCOCCOCCC(N)=O)NC(=O)[C@@H](CO)NC(=O)[C@@H](C(C)C)NC(=O)[C@@H](Cc2ccc(O)cc2)NC1=O
stability time (simulated intestinal fluid; pH 6.8, 37 °C, together with: pancreatin): ≥ 12 h

COc1ccccc1-c1n[nH]c2nc(NC3CCN(C(=O)Cc4ccc(F)cc4F)CC3)ncc12
relative abundance (bead binding, competition bead pull-down, measured: LMJF.36.5010; Leishmania donovani axenic amastigote extract; 10 µM; relative to: vehicle): 1.07

Cc1cc(C(=O)Nc2nc3cccc(C)c3n2[C@H]2CCCCN(C(=O)/C=C/CN(C)C)C2)ccn1
cells in S phase (Trypanosoma brucei; propidium iodide flow cytometry; bloodstream form; concentration not given, 72 h): 15.8%

CC(C)=CCC/C(C)=C/CCn1cc(CC(P(=O)(O)O)P(=O)(O)O)nn1
concentration (CD-1 mouse, lung; intravenous, 0.5 mg/kg, 168 h, single dose): not detected

C=CC(=O)Nc1cccc(Cn2ncc3cnc(Nc4cnn(CCOC)c4)nc32)c1
serum AST (Sprague-Dawley rat male, serum; oral, 180 mg/kg, day 28, 28-day subacute toxicity): 85 ± 13.4 U/L

C=Cc1c(C)c2cc3nc(c(CC(=O)[O-])c4[n-]c(cc5nc(cc1[n-]2)C(C)=C5CC)c(C)c4C(=O)[O-])C(CCC(=O)[O-])C3C.[Cu+2].[Na+].[Na+].[Na+] (centres unmarked)
serum cholesterol (Wistar rat, male; oral, 500 mg/kg daily, 28 days): 42.8 ± 11.2 mg/dL

CC[C@H](C)[C@H](NC(=O)[C@H](Cc1c[nH]c2ccccc12)NC(=O)c1ccccc1)C(=O)N[C@@H](CCCNC(=N)N)C(=O)N[C@@H](Cc1ccc(O)cc1)C(=O)N[C@@H](CCCCN)C(=O)N[C@@H](Cc1c[nH]c2ccccc12)C(=O)N1CCC[C@@H]1C(=O)N[C@@H](CCCNC(=N)N)C(=O)N[C@@H](CCCCN)C(=O)N[C@@H](CCCCN)C(=O)N[C@H](C(=O)N[C@@H](CCCNC(=N)N)C(=O)N[C@@H](Cc1ccc(O)cc1)C(=O)N[C@@H](Cc1c[nH]c2ccccc12)C(=O)N[C@H](C(=O)NCC(=O)N1CCC[C@H]1C(N)=O)[C@@H](C)O)C(C)C
melting temperature (circular dichroism; phosphate buffer; 30 µM, pH 6.5): 35.5 °C

COc1ccc(CNc2ccc3c(c2)S(=O)(=O)C=C3)cc1
mean platelet volume (male C57BL/6 mice, blood; intraperitoneal, 5 mg/kg, day 8, group average): 5.27 fL

CCn1ccc(-c2cc(-c3cnn(C)c3)cc([C@@H](C)NC(=O)c3cc(OCCN(C)C)ccc3C)c2)n1
clearance (C57BL/6J mice, male, plasma; iv, 10 mg/kg): 26.8 mL/min/kg

CC(C)[C@@H]1NC(=O)CNC(=O)[C@H](CC(N)=O)NC(=O)[C@H](CCCNC(=N)N)NC(=O)[C@H](Cc2ccc(O)cc2)NC(=O)[C@H](C(C)C)NC(=O)[C@@H](NC(=O)[C@@H](NC(=O)[C@H](CC(N)=O)NC(=O)[C@H](Cc2c[nH]c3ccccc23)NC(=O)[C@H](C)NC(=O)[C@H](Cc2ccccc2)NC(=O)CNC(=O)[C@H](CCCCN)NC(=O)[C@H](Cc2ccccc2)NC(=O)[C@H](Cc2ccccc2)NC(=O)[C@H](CCCCN)NC(=O)OCC2c3ccccc3-c3ccccc32)C(C)C)CSSC[C@@H](C(=O)N[C@@H](Cc2c[nH]cn2)C(=O)N[C@@H](CCCNC(=N)N)C(=O)N[C@@H](CCCNC(=N)N)C(=O)N[C@@H](C)C(=O)N[C@@H](CC(N)=O)C(N)=O)NC(=O)[C@H](C(C)C)NC(=O)[C@H](CCCNC(=N)N)NC1=O
breathing score (ICR mouse; ip, 10 mg/kg; direction not given): 0

Cc1ccc(OCCN(C)C)cc1C(=O)N[C@H](C)c1cc(-c2ccco2)nc2ccccc12
viability (Vero E6; 7.812 µM): 102% and 101%

CC(C)(c1cc(Br)c(O)c(Br)c1)c1cc(Br)c(O)c(Br)c1
dose fraction in permeate (ultrafiltration; cow milk whey; 200 nM nominal in whole milk): 6.32%

CSCC[C@@H]1NC(=O)[C@H](C(C)C)NC(=O)[C@H](CCCNC(=N)N)NC(=O)CNC(=O)[C@@H]2CCCN2C(=O)[C@@H](NC(=O)CNC(=O)[C@H](CO)NC(=O)CNC(=O)[C@H](CO)NC(=S)Nc2ccc(C[C@H]3CN(CC(=O)O)CCN(CC(=O)O)CCN3CC(=O)O)cc2)CSSC[C@@H](C(N)=O)NC(=O)[C@@H]2CCCN2C(=O)CNC(=O)[C@H](CCC(=O)O)NC(=O)[C@H](CC(=O)O)NC(=O)[C@H](CC(=O)O)NC(=O)CNC(=O)[C@H](CC(C)C)NC(=O)[C@H](Cc2c[nH]cn2)NC(=O)[C@H](CC(C)C)NC(=O)CNC(=O)[C@H](Cc2c[nH]cn2)NC1=O [copper-64 labelled]
clearance half-life (dynamic PET; CD rat, myocardial infarction, remote myocardium; intravenous, 18.5 MBq): 21 ± 5.5 min

Cc1ccc(OCCN(C)C)cc1C(=O)N[C@H](C)c1cc(-c2ccc(C#N)nc2)nc2ccccc12
viability (Vero E6; 1.953 µM): 107% and 103%

CC(C)C[C@H](NC(=O)[C@H](Cc1ccc(O)cc1)NC(=O)[C@H](C)NC(=O)[C@H](CC(N)=O)NC(=O)[C@H](CC(C)C)NC(=O)[C@H](C)NC(=O)[C@@H](NC(=O)[C@H](CCCCN)NC(=O)CNC(=O)[C@@H](NC(=O)[C@H](CCCCN)NC(=O)[C@H](CCCCN)NC(=O)CNC(=O)[C@@H](NC(=O)[C@H](Cc1c[nH]cn1)NC(=O)[C@@H](NC(=O)[C@H](C)NC(=O)[C@H](CCCCN)NC(=O)[C@H](CCCCN)NC(=O)[C@H](Cc1ccccc1)NC(=O)[C@H](Cc1c[nH]c2ccccc12)NC(=O)[C@H](CCCCN)NC(=O)[C@H](CCCCN)NC(=O)[C@H](CC(C)C)NC(=O)CN)C(C)C)C(C)C)C(C)C)C(C)C)C(N)=O
acute toxic concentration (zebrafish embryos 28 hpf, E3 medium; 1 h): 5 µM

CC(C)(C)C(=O)OCOP(=O)(OCOC(=O)C(C)(C)C)C1CCCN(O)C1=O (centres unmarked)
TGI (NCI/ADR-RES; cell growth): 3.55 µM

CC[C@H](C)[C@H](NC(=O)[C@H](CCCCN)NC(=O)CNC(=O)[C@H](CC(C)C)NC(=O)[C@H](Cc1ccccc1)NC(=O)[C@H](CCCCN)NC(=O)[C@H](CO)NC(=O)[C@H](Cc1ccccc1)NC(=O)[C@H](Cc1c[nH]c2ccccc12)NC(=O)[C@H](CCC(N)=O)NC(=O)[C@@H](NC(=O)[C@H](Cc1ccccc1)NC(=O)CCCCCNC(=O)CN1CCN(CC(=O)O)CCN(CC(=O)O)CCN(CC(=O)O)CC1)C(C)C)C(=O)N[C@@H](CCC(=O)O)C(=O)N1CCC[C@H]1C(=O)N[C@@H](CC(=O)O)C(=O)N[C@H](C(=O)N[C@@H](CO)C(=O)N[C@@H](CCC(N)=O)C(=O)N[C@H](C(=O)N[C@@H](CCC(N)=O)C(=O)N[C@@H](CC(=O)O)C(=O)N1CCC[C@H]1C(=O)N[C@@H](CC(N)=O)C(=O)N[C@@H](CC(=O)O)C(=O)N[C@@H](CCC(N)=O)C(=O)N[C@@H](Cc1ccc(O)cc1)C(=O)N[C@@H](CCC(=O)O)C(=O)N1CCC[C@H]1C(=O)N[C@@H](Cc1ccccc1)C(=O)O)C(C)C)C(C)C [copper-64 labelled]
tissue uptake (C57BL/6 male mouse, tumour-naive, lung; 0.5 h): 5.81 ± 0.8 %ID/g

CC(C)c1ccccc1/N=N/c1ccc2[nH]cc(CCN(C)C)c2c1
trans isomer at photostationary state (light irradiation; solution; together with: light 530 nm): 70%

O=C1NC2(CC2)COc2ncc(F)cc2[C@H]2COCCN2c2ccn3ncc1c3n2
organ-to-brain weight ratio (Sprague-Dawley rat, female, spleen; oral, 20 mg/kg/day, 4 weeks dosing, end of recovery): 38.2 ± 2.61%

CC1(C)C(=O)N(c2ccc(C#N)c(C(F)(F)F)c2)C(=S)N1c1ccc(C(=O)O)c(F)c1
AUC(0-t) (human, male, plasma; oral, 80 mg, single dose, fasting): 24000 ± 4330 ng·h/mL

CCN(Cc1ccccc1)C(=O)CCc1nc(CN2CCN(C(=O)Cc3ccc(OC)c(OC)c3)CC2)no1
time to first slip (rotarod test; mouse, CCI neuropathic pain model; 5 mg/kg): 0.8 ± 0.11 min

CCCCCCCCCCCC(=O)C(C)C(=O)N1CCC[C@H]1C(=O)NC(C)(C)C(=O)NC(C)(C)C(=O)NC(C)(C)C(=O)N[C@](C)(CC)C(=O)NCCC(=O)N[C@@H](C)C(=O)N[C@](C)(CC)C(=O)N[C@@H](C)C(=O)N[C@@H](CC(C)C)C(=O)N[C@](C)(CC)C(=O)NCCC(=O)N[C@@H](C)C(=O)N[C@](C)(CC)C(=O)NCCC(=O)N[C@@H](C)C(=O)NC(C)(C)C(=O)NC(C)(C)C(=O)NC(C)(C)C(=O)N[C@@H](C)C(=O)N[C@@H](CC(=O)O)C(=O)O (some centres unmarked)
remaining intact peptide (LC-MS; 50% pooled human serum; 40 µM, 30 min, pH 7.5, 37 °C; relative to: 0 h): 61.1% and 62.9% and 56.4%

N#Cc1ccc(N2N=C3c4ccc(C(=O)O)cc4CCC3C2C2CCCC2)cc1Cl (centres unmarked)
intrinsic clearance (human, liver microsomes; 1 µM): < 5 µL/min/mg

A few entries again:
Cc1cc(C(=O)Nc2nc3cccc(C)c3n2[C@H]2CCCCN(C(=O)/C=C/CN(C)C)C2)ccn1
cells in S phase (Trypanosoma brucei; propidium iodide flow cytometry; bloodstream form; concentration not given, 72 h): 15.8%

CC1(C)C(=O)N(c2ccc(C#N)c(C(F)(F)F)c2)C(=S)N1c1ccc(C(=O)O)c(F)c1
AUC(0-t) (human, male, plasma; oral, 80 mg, single dose, fasting): 24000 ± 4330 ng·h/mL
